Results gathered from unrelated publications.
Each line is one published result; not all experiments were run side by side.
Organism: Acinetobacter baumannii

SMILES | test | test system | setting | MIC
CC[C@H]1OC(=O)[C@H](C)[C@@H](OC(=O)Cc2c(F)cccc2F)[C@H](C)[C@@H](O[C@@H]2O[C@H](C)C[C@H](N(C)C)[C@H]2O)[C@](C)(OC)C[C@@H](C)C(=O)[C@H](C)[C@@H](O)[C@]1(C)O | – | DSM 30007 | added: colistin sulfate at 0.1 x MIC | 1 µM
CCCCCCCCCC[N+](C)(C)CCCCCCOc1cc(OCCCCCC[N+](C)(C)CCCCCCCCCC)cc(OCCCCCC[N+](C)(C)CCCCCCCCCC)c1.[Br-].[Br-].[Br-] | – | ATCC 17978 | – | 1 µM
CCCCCCCC(=O)N[C@@H](CCN)C(=O)N[C@H](C(=O)N[C@@H](CN)C(=O)N[C@H]1CCNC(=O)[C@H]([C@@H](C)O)NC(=O)[C@H](CCN)NC(=O)[C@H](CCN)NC(=O)[C@H]([C@@H](C)O)NC(=O)[C@@H](CC(C)C)NC(=O)[C@H](CN)NC1=O)[C@@H](C)O | – | ATCC 17978, CAMHB | 20 h, 37 °C | 0.5 µg/mL
CCCCCCCC(=O)N[C@@H](CCN)C(=O)N[C@H](C(=O)N[C@@H](CCN)C(=O)N[C@H]1CCNC(=O)[C@H]([C@@H](C)O)NC(=O)[C@H](CCN)NC(=O)[C@H](CCN)NC(=O)[C@H](CC(C)C)NC(=O)[C@@H](Cc2ccccc2)NC(=O)[C@H](CCN)NC1=O)[C@@H](C)O | CLSI broth microdilution | 248-01-C.248, CAMHB | 20 h, 37 °C | 0.25 µg/mL
CCCCCCn1cc[n+](CCCCCCOc2cc(OCCCCCC[n+]3ccn(CCCCCC)c3)cc(OCCCCCC[n+]3ccn(CCCCCC)c3)c2)c1.[Br-].[Br-].[Br-] | – | ATCC 17978 | – | 8 µM
CC(C)C[C@@H](NC(=O)[C@@H](CC(C)C)NC(=O)[C@@H](CCCCN)NC(=O)[C@@H](CCCCNC(=O)[C@@H](CC(C)C)NC(=O)[C@@H](CC(C)C)NC(=O)[C@@H](CCCCNC(=O)[C@@H](CC(C)C)NC(=O)[C@@H](CCCCN)NC(=O)[C@@H](CCCCNC(=O)[C@@H](CC(C)C)NC(=O)[C@H](N)CCCCN)NC(=O)[C@@H](CC(C)C)NC(=O)[C@H](N)CCCCN)NC(=O)[C@@H](CC(C)C)NC(=O)[C@@H](CCCCN)NC(=O)[C@@H](CCCCNC(=O)[C@@H](CC(C)C)NC(=O)[C@H](N)CCCCN)NC(=O)[C@@H](CC(C)C)NC(=O)[C@H](N)CCCCN)NC(=O)[C@@H](CC(C)C)NC(=O)[C@@H](CC(C)C)NC(=O)[C@@H](CCCCNC(=O)[C@@H](CC(C)C)NC(=O)[C@@H](CCCCN)NC(=O)[C@@H](CCCCNC(=O)[C@@H](CC(C)C)NC(=O)[C@H](N)CCCCN)NC(=O)[C@@H](CC(C)C)NC(=O)[C@H](N)CCCCN)NC(=O)[C@@H](CC(C)C)NC(=O)[C@@H](CCCCN)NC(=O)[C@@H](CCCCNC(=O)[C@@H](CC(C)C)NC(=O)[C@H](N)CCCCN)NC(=O)[C@@H](CC(C)C)NC(=O)[C@H](N)CCCCN)C(N)=O | broth microdilution | ATCC 19606 | 20 h, 37 °C | 8 µg/mL
CC1(C)C(NC(=O)C(=NOC2(C(=O)O)CCC2)c2csc(N)n2)C(=O)N1OS(=O)(=O)O (stereo not shown) | agar dilution | ATCC 19606 | – | 16 µg/mL
COc1c(NC(=O)c2ccc(NC(=O)[C@H](Cc3c[nH]nn3)NC(=O)c3ccc(NC(=O)/C(C)=C/c4ccc(O)cc4)cc3)cc2)ccc(C(=O)Nc2ccc(C(=O)O)c(O)c2)c1O | broth microdilution | ciprofloxacin-resistant | – | 8 µg/mL
CCCCCCCC(=O)N[C@@H](CCN)C(=O)N[C@H](C(=O)N[C@@H](CCN)C(=O)N[C@H]1CCNC(=O)[C@H]([C@@H](C)O)NC(=O)[C@H](C)NC(=O)[C@H](CCN)NC(=O)[C@H](CC(C)C)NC(=O)[C@@H](Cc2ccccc2)NC(=O)[C@H](CCN)NC1=O)[C@@H](C)O | CLSI broth microdilution | 246-01-C.246, CAMHB | 20 h, 37 °C | 256 µg/mL
C#CCNC(=O)C1(O/N=C(\C(=O)N[C@@H]2C(=O)N(OS(=O)(=O)O)C2(C)C)c2csc(N)n2)CC1 | agar dilution | ATCC 19606 | – | 32 µg/mL
CCCCCCCC(=O)N[C@@H](CCN)C(=O)N[C@H](C(=O)N[C@@H](CN)C(=O)N[C@H]1CCNC(=O)[C@H]([C@@H](C)O)NC(=O)[C@H](CCN)NC(=O)[C@H](CCN)NC(=O)[C@H]([C@@H](C)O)NC(=O)[C@@H](CC(C)C)NC(=O)[C@H](CCCN)NC1=O)[C@@H](C)O | – | ATCC 17978, CAMHB | 20 h, 37 °C | > 32 µg/mL
C#CCOc1ccc(CN[C@@]2(C)C[C@H](O[C@H]3[C@H](Oc4c5cc6cc4Oc4ccc(cc4Cl)[C@@H](O)[C@@H](NC(=O)[C@@H](CC(C)C)NC)C(=O)N[C@@H](CC(N)=O)C(=O)N[C@H]6C(=O)N[C@H]4C(=O)N[C@H](C(=O)N[C@H](C(=O)NCC(N)=O)c6cc(O)cc(O)c6-c6cc4ccc6O)[C@H](O)c4ccc(c(Cl)c4)O5)O[C@H](CO)[C@@H](O)[C@@H]3O)O[C@@H](C)[C@H]2O)cc1OC | broth microdilution | ATCC 17978, cation-adjusted Mueller-Hinton broth | 18 to 20 h, 37 °C, 0.002% polysorbate 80 | 128 µg/mL
CC[C@H]1OC(=O)[C@H](C)[C@@H](OC(=O)Cc2c(F)cc([N+](=O)[O-])cc2F)[C@H](C)[C@@H](O[C@@H]2O[C@H](C)C[C@H](N(C)C)[C@H]2O)[C@](C)(OC)C[C@@H](C)C(=O)[C@H](C)[C@@H](O)[C@]1(C)O | – | DSM 30007 | added: colistin sulfate at 0.5 x MIC | 0.25 µM
O=[N+]([O-])c1cc(Cl)c2cccnc2c1O | microbial growth, broth dilution | ATCC19606 | – | 8 µg/mL
COc1cc(C(=O)Nc2ccc(C(=O)O)c(O)c2)ccc1NC(=O)c1ccc(NC(=O)[C@H](Cc2c[nH]nn2)NC(=O)c2ccc(NC(=O)/C(C)=C/c3ccc(O)cc3)cc2)cc1 | broth microdilution | ciprofloxacin-resistant | – | 16 µg/mL
CCCCCCCC(=O)N[C@@H](CN)C(=O)N[C@H](C(=O)N[C@@H](CN)C(=O)N[C@H]1CCNC(=O)[C@H]([C@@H](C)O)NC(=O)[C@H](CCN)NC(=O)[C@H](CCN)NC(=O)[C@H]([C@@H](C)O)NC(=O)[C@@H](CC(C)C)NC(=O)[C@H](CCN)NC1=O)[C@@H](C)O | – | ATCC 17978, CAMHB | 20 h, 37 °C | 0.25 µg/mL

SMILES | test | test system | setting | MIC
COc1ccc2ccc(O)c(/C=N/[C@H]3CCCC[C@H]3/N=C/c3cccc(C)c3O)c2c1 | bacterial growth, broth microdilution | carbapenem-resistant clinical isolate | – | > 40 µM
CN[C@H](CC(C)C)C(=O)N[C@H]1C(=O)N[C@@H](CC(N)=O)C(=O)N[C@H]2C(=O)N[C@H]3C(=O)N[C@H](C(=O)N[C@H](C(=O)NCc4cn(CC(=O)N[C@H](C(=O)N[C@@H](CCN)C(=O)N[C@H]5CCNC(=O)[C@H]([C@@H](C)O)NC(=O)[C@H](CCN)NC(=O)[C@H](CCN)NC(=O)[C@H](CC(C)C)NC(=O)[C@@H](CC(C)C)NC(=O)[C@H](CCN)NC5=O)[C@@H](C)O)nn4)c4cc(O)cc(O)c4-c4cc3ccc4O)[C@H](O)c3ccc(c(Cl)c3)Oc3cc2cc(c3O[C@@H]2O[C@H](CO)[C@@H](O)[C@H](O)[C@H]2O[C@H]2C[C@](C)(N)[C@H](O)[C@H](C)O2)Oc2ccc(cc2Cl)[C@H]1O | broth microdilution | BAA-747, cation-adjusted Mueller-Hinton broth | 18 to 20 h, 37 °C, 0.002% polysorbate 80 | 32 µg/mL
C=CCO/N=C(\C(=O)N[C@@H]1C(=O)N(OS(=O)(=O)O)C1(C)C)c1csc(N)n1 | agar dilution | ATCC 19606 | – | 8 µg/mL
CC[C@H]1OC(=O)[C@H](C)[C@@H](OC(=O)Cc2ccc(Cl)cc2)[C@H](C)[C@@H](O[C@@H]2O[C@H](C)C[C@H](N(C)C)[C@H]2O)[C@](C)(OC)C[C@@H](C)C(=O)[C@H](C)[C@@H](O)[C@]1(C)O | microbial growth | ATCC19606 | – | > 32 µg/mL
CCCCCCCC(=O)N[C@@H](CCN)C(=O)N[C@H](C(=O)N[C@@H](CN)C(=O)N[C@H]1CCNC(=O)[C@H]([C@@H](C)O)NC(=O)[C@H](CCN)NC(=O)[C@H](CCN)NC(=O)[C@H]([C@@H](C)O)NC(=O)[C@@H](CC(C)C)NC(=O)[C@H](CCN)NC1=O)[C@@H](C)O | – | ATCC 17978, CAMHB | 20 h, 37 °C | 0.5 µg/mL
C=CCO/N=C(\C(=O)N[C@@H]1C(=O)N(OS(=O)(=O)O)C1(C)C)c1nsc(N)n1 | agar dilution | 16-16 | – | > 64 µg/mL
CCCCCCCC(=O)N[C@@H](C)C(=O)N[C@H](C(=O)N[C@@H](CCN)C(=O)N[C@H]1CCNC(=O)[C@H]([C@@H](C)O)NC(=O)[C@H](CCN)NC(=O)[C@H](CCN)NC(=O)[C@H](CC(C)C)NC(=O)[C@@H](Cc2ccccc2)NC(=O)[C@H](CCN)NC1=O)[C@@H](C)O | broth microdilution | ATCC 17978 | 20 h, 37 °C | 64 µg/mL
CC[C@H]1OC(=O)[C@H](C)[C@@H](OC(=O)Cc2ccc3c(c2)OCO3)[C@H](C)[C@@H](O[C@@H]2O[C@H](C)C[C@H](N(C)C)[C@H]2O)[C@](C)(OC)C[C@@H](C)C(=O)[C@H](C)[C@@H](O)[C@]1(C)O | microbial growth | ATCC19606 | – | 32 µg/mL
CC1(C)[C@H](NC(=O)/C(=N\OCc2c(Cl)cccc2Cl)c2csc(N)n2)C(=O)N1OS(=O)(=O)O | agar dilution | 16-16 | – | > 64 µg/mL
COc1cc(C(=O)O)ccc1NC(=O)c1ccc(NC(=O)c2ccc(NC(=O)[C@H](Cc3c[nH]nn3)NC(=O)c3ccc(NC(=O)/C(C)=C/c4ccc(O)cc4)cc3)cc2)c(OC)c1O | broth microdilution | ciprofloxacin-resistant | – | 8 µg/mL
COc1ccc(/C=N/[C@@H]2CCCC[C@@H]2/N=C/c2c(O)ccc3ccc(OC)cc23)c(O)c1 | bacterial growth, broth microdilution | carbapenem-resistant clinical isolate | – | > 40 µM
CCCCCCCCCCn1cc[n+](CCCCOc2cc(OCCCC[n+]3ccn(CCCCCCCCCC)c3)cc(OCCCC[n+]3ccn(CCCCCCCCCC)c3)c2)c1.[Br-].[Br-].[Br-] | – | ATCC 17978 | – | 1 µM
CCCCCCCC(=O)N[C@@H](CCN)C(=O)N[C@H](C(=O)N[C@@H](CCN)C(=O)N[C@H]1CCNC(=O)[C@H]([C@@H](C)O)NC(=O)[C@H](CCN)NC(=O)[C@H](CCN)NC(=O)[C@H](CC(C)C)NC(=O)[C@@H](Cc2ccccc2)NC(=O)[C@H](C)NC1=O)[C@@H](C)O | CLSI broth microdilution | 246-01-C.246, CAMHB | 20 h, 37 °C | > 512 µg/mL
CC1(C)[C@H](NC(=O)/C(=N\OC2(C(=O)O)CCCCC2)c2csc(N)n2)C(=O)N1OS(=O)(=O)O | agar dilution | ATCC 19606 | – | 32 µg/mL
CCCCCCn1cc[n+](CCCCCCCCOc2cc(OCCCCCCCC[n+]3ccn(CCCCCC)c3)cc(OCCCCCCCC[n+]3ccn(CCCCCC)c3)c2)c1.[Br-].[Br-].[Br-] | – | ATCC 17978 | – | 1 µM

Excerpt of the above:
SMILES | test | test system | setting | MIC
CCCCCCCC(=O)N[C@@H](CCN)C(=O)N[C@H](C(=O)N[C@@H](CN)C(=O)N[C@H]1CCNC(=O)[C@H]([C@@H](C)O)NC(=O)[C@H](CCN)NC(=O)[C@H](CCN)NC(=O)[C@H]([C@@H](C)O)NC(=O)[C@@H](CC(C)C)NC(=O)[C@H](CN)NC1=O)[C@@H](C)O | – | ATCC 17978, CAMHB | 20 h, 37 °C | 0.5 µg/mL
C=CCO/N=C(\C(=O)N[C@@H]1C(=O)N(OS(=O)(=O)O)C1(C)C)c1nsc(N)n1 | agar dilution | 16-16 | – | > 64 µg/mL
CC1(C)[C@H](NC(=O)/C(=N\OC2(C(=O)O)CCCCC2)c2csc(N)n2)C(=O)N1OS(=O)(=O)O | agar dilution | ATCC 19606 | – | 32 µg/mL
